# Experimental data collected from several papers.
# Every numbered part comes from another study and shows a few of its results, in no order.

# Series 1
# Target: Sal-like protein 4, full length isoform B (SALL4, Homo sapiens, UniProt Q9UJQ4-2, residues 1-616)
# Method: universal PBM
# Form: double-stranded DNA, one strand shown
# Medium: in vitro
# Concentration: not given
# Setting: 8-mer, flanks averaged, mean of replicates
# Reading: higher = stronger binding
Oligonucleotide,E-score
CTTTGCCC,-0.192
CTGACCCC,-0.266
ACAGACAG,-0.0314
AGAGGCAG,-0.209
AAAATCGG,0.0478
ATCGCACA,0.0889
CCTATACA,0.196
GACGTAGA,-0.0799
AGCGGTAG,-0.249
GCATGTAA,0.219
ATAAGAAA,0.326
ACGCGCCA,-0.201
CTCCATCA,0.0126
ACTCAATA,0.319
AGTTTCGG,-0.152
AGAAGTCG,-0.139
CATTATCC,0.169
GGTACTCA,-0.00098
CTATTAAG,0.169
CGGTCCAA,-0.224
CACTGCGC,-0.296
ATCCGATG,-0.101
CCTACAGA,0.00236
AGACCTCG,-0.143
AGTTTTGC,0.192

# Series 2
# Target: Interferon regulatory factor 7, full length, phosphomimetic (IRF7, Homo sapiens, UniProt Q92985, residues 1-503, S471D/S472D/S475D/S476D/S477D/S483D/S484D/S487D)
# Method: protein-binding microarray
# Form: double-stranded DNA, one strand shown
# Medium: in vitro
# Concentration: 2200 nM top
# Setting: 60-bp whole probe
# Together with: salmon DNA 0.4 mg/ml
# Baseline: random background probes
# Reading: higher = stronger binding
# Constant ends, left off below: GCCTAGCAC … GTCTTGATTCGCTTGACGCTGCTG
# Residues (chain): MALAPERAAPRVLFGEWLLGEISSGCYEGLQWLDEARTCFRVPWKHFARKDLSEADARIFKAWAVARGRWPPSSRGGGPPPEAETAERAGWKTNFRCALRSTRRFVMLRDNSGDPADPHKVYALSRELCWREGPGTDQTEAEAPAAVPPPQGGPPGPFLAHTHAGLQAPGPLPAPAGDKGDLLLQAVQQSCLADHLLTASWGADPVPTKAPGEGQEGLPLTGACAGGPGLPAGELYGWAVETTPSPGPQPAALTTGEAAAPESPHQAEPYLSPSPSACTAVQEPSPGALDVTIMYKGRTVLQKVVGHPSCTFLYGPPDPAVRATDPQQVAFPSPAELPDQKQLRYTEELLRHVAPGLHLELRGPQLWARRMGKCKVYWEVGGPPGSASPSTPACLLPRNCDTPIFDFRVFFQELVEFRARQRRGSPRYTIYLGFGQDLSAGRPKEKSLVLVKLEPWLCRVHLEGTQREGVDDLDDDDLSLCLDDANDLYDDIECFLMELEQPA
Oligonucleotide,fitted relative affinity [z-score]
AACAGTTCATGTTTTGGAAAGTGCTAG,0.793
GACAATCTCAGACTGGAGACGTGCTAG,-0.211
TTAGGTTCCCTTTTACTTTAGTGCTAG,2.63
GACGATTTCAGGCTCGAGACGTGCTAG,0.457
TTAGGTCTCCCTCTCCTTTAGTGCTAG,0.741
TTAGGTCTCAGTCTCGATTAGTGCTAG,0.512
CACGATTTCAGTTTCGAGACGTGCTAG,6.02
GAAGGACTGGACTTTCGGGACGTGCTA,2.23
ATGCATTGTTATTTGTCAATGTGCTAG,1.22
GACGGTATCCTAATGCTGACGTGCTAG,0.346
TAAGAACTGAGTATCGATTAGTGCTAG,-0.507
TTAGGTTTCGGTCTCGGGTAGTGCTAG,6.43
GACGGACTGGGGTGTCGGGACGTGCTA,-0.996
TCAGAGCTCCTCCTTCTCACTGTGCTA,0.428
TTAGGTCTCGTACTGGGTTAGTGCTAG,0.309
TGAGATCTCAGACTGGATTAGTGCTAG,-0.0553
GACGGTTCCGGTATCGGGACGTGCTAG,1.01
TCATGTATGGATGTGTTACTGTGCTAG,1.32
TAAGTTTCACTTTCCAAAGCGTGCTAG,9.09

# Series 3
# Target: Ras GTPase-activating protein-binding protein 1, full length (G3BP1, Homo sapiens, UniProt Q13283)
# Sequence of UniProt Q13283 (whole entry, looked up): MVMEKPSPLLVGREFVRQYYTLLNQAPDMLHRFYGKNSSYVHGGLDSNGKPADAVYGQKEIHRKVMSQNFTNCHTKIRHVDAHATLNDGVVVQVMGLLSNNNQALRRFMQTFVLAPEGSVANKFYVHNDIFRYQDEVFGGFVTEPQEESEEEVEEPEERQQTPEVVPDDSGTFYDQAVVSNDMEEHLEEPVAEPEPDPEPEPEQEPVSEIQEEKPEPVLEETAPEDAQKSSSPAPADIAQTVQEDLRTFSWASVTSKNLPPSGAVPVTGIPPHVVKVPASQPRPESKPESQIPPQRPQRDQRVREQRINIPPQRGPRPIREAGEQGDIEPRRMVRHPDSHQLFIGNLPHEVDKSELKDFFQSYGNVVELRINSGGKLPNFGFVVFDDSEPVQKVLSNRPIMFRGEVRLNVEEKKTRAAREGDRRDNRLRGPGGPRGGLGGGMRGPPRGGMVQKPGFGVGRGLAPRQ
# Method: RNA Bind-n-Seq
# Form: RNA
# Medium: in vitro
# Concentration: 200 nM
# Setting: whole 134-nt RNA, ends assumed
# Together with: 150 mM LiCl
# Baseline: input library
# Reading: higher = stronger binding
# Library: 7-deaza-guanosine replaces G
# Constant ends, left off below: GGGAGUUCUACAGUCCGACGAUC … UGGAAUUCUCGGGUGUCAAGG
Oligonucleotide,log2 enrichment
UAACUUUAGAGGAGGAUCUGAUGGAUAUGGCAGUGGACGUGGAUUUGGGGAUGGCUAUAAUGGGGAUGGAGGAGGACCUGGAGGUGGCAA,0.048
UGGGAGGGGGAUUUUGUUUAUUUUUUUAGCUCAUUUCCAGGGGUGGGAAUUUUUUUUUAAUAUGUGUCAUGAAUAAAGUUGUUUUUGAAA,-0.44
UCCUGUGCUACACAUCGUAUGUACCGAAUCGGGUUUUUUUGGGUUUUUGGGUUUUUGGGAAAGUAUUAUGUUACGCCGUUCGGAUCUGCA,0.759
CCUGUGCUACACAUCGUAUGUACCGAAUCGGGCCCCCCCGGGGCCCCCCCGGCCCCCCCGGAAAGUAUUAUGUUACGCCGUUCGGAUCUG,0.175
UCCUGUGCUACACAUCGUAUGUACCGAAUCGGCCCCCCGGGGCCCCCCGGGGCCCCCCGGAAAGUAUUAUGUUACGCCGUUCGGAUCUGC,-2.25
GCAGGAAGUAAAAACAAAUGGAAAUGCUUCGGAUAGUGGCAGGGGUGGGGGUUGCUAAGGAAAGGGUGGGAUGGGAGUGGGUAAAGAGUC,-0.118
ACCAUGCAGGUGGGCUUCUUUGGGAAGUGGGGCAAGGGGGGGAUAGGGAGGGGGGUAACACUUUGGGAACAGGUGGUCCCAGGUCGUUUC,-0.00865
UGCUGUUCAGGUGGUGGAGAAGAAGAUGGAACCCCAGGCUGCCUGGCUACAGAGCCUGGAGGGAUGCAUGUGGACAGCCAAGAAGAAGCU,-1.38

# Series 4
# Target: Histone acetyltransferase KAT6A, winged helix 2, GST fusion (KAT6A, Homo sapiens, UniProt Q92794, residues 85-181)
# Method: protein binding microarray
# Form: double-stranded DNA, one strand shown
# Medium: in vitro
# Concentration: not given
# Setting: 8-mer, flanks averaged, mean of 2 arrays, mostly near background
# Baseline: not given
# Reading: higher = stronger binding
# Construct (chain): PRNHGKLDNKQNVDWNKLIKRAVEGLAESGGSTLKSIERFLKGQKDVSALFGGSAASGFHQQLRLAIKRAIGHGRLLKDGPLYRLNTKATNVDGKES
Oligonucleotide,E-score
TATCTGGA,-0.0818
TAGAGGGA,0.0146
TCTTCAAA,0.0851
AGTGGGAA,0.0612
AAATCCCA,-0.0274
ACACAATA,-0.194
GAAGGTAC,-0.0261
GACACATC,-0.0391
CCCGTCCG,-0.132
CGGTACCC,-0.0709
GTAATAAA,-0.0571
ATACCCTA,-0.0991
GGAGACAA,0.122
ATCCGATC,-0.0102
ATACGAAG,0.0248
CCAGTCTC,-0.0529
CAGATTAA,0.08
ATCATAGC,0.0828
CATTTCAC,-0.106
CTCCATAA,0.0314
GCCTAGCC,0.0281
ATGCGTCG,-0.0276

# Excerpt of the above (series 2):
Oligonucleotide,fitted relative affinity [z-score]
AACAGTTCATGTTTTGGAAAGTGCTAG,0.793
GACAATCTCAGACTGGAGACGTGCTAG,-0.211
TTAGGTTCCCTTTTACTTTAGTGCTAG,2.63
GACGATTTCAGGCTCGAGACGTGCTAG,0.457
TTAGGTCTCCCTCTCCTTTAGTGCTAG,0.741
TTAGGTCTCAGTCTCGATTAGTGCTAG,0.512
CACGATTTCAGTTTCGAGACGTGCTAG,6.02
GAAGGACTGGACTTTCGGGACGTGCTA,2.23
ATGCATTGTTATTTGTCAATGTGCTAG,1.22
GACGGTATCCTAATGCTGACGTGCTAG,0.346
